# Published values from different studies.
# Lines come from different studies, so protocols differ. pIC50: −log10 of the molar value.
Compound,tested on,assay,test system,conditions,scale,quantity,value
CNS(=O)(=O)Nc1nccc(Cc2c(C)c3ccc(Oc4ncccc4F)cc3oc2=O)c1F,MHH-PREB-1,cell viability,,7 days,,pIC50,< 6.00
C=C(NC(=O)c1csc(-c2nc3c(cc2O)-c2nc(cs2)C(=O)NC(C(C)O)C(=O)NC(=C(C)OC)c2nc(cs2)C(=O)NC2c4nc(cs4)C(=O)NC(COC(=O)c4c5c6c(cccc6n4O)COC(=O)C(OC4CC(C)(O)C(N(C)C)C(C)O4)C2OC5)c2nc-3cs2)n1)C(N)=O (stereo not shown),Streptococcus pneumoniae,,"-25, immunocompromised mice, lung infection, lung","16 mg/kg/day once daily, 24 h post-dose",,bacterial load,6.6 log CFU/g
C=CC(=O)N1[C@@H](c2ccc3c(c2)OCO3)c2[nH]c3ccccc3c2C[C@H]1C(=O)N1CCN(C)CC1,human cyclin E1 N112C-3xFLAG:CDK2,"co-IP with TMT proteomics, item: SAMHD1",,"concentration not given, Q9Y3Z3",relative to: wild type DMSO,relative co-enrichment,79%
Cn1ncc2cc(-c3cncc(Cl)c3N3CCC4(CCNC4=O)CC3)ccc21,LS174T,"gene expression, microarray, item: ABCA1 mRNA",,"concentration not given, 24 h",relative to: untreated cells,log2 fold change,2.6
Nc1ncc(-c2cc(-c3cnn(CC(F)(F)F)c3)ncc2F)nc1C(=O)NC1CNCC(F)C1 (stereo not shown),ROCK2,KINOMEscan,,1 µM,relative to: DMSO control,remaining binding,51%
CN1CCCNC(=O)c2cccc(c2)C(=O)NCCCN(C)CCCNc2cccc3c2C(=O)c2cccc(c2C3=O)NCCC1,SAS,"RNA-Seq, item: ATP1B3 mRNA",,"1 µM, 24 h",relative to: untreated cells,log2 fold change,-2.14
C=CC(=O)Nc1cccc(Cn2ncc3cnc(Nc4cnn(CCOC)c4)nc32)c1,human AMPK-alpha2,KINOMEscan,,100 nM,relative to: control,binding,100%
COC1CN([C@H]2CC[C@H]([C@@]3(C)Oc4c(Cl)cc(C(=O)NCc5c(SC)cc(C)[nH]c5=O)c(C)c4O3)CC2)C1,,"RNA-seq, item: FHIP1A mouse homolog","mouse, HT-1376 xenograft, whole blood",dose not given,relative to: vehicle,log2 fold change,6.11
Cc1ncsc1-c1ccc(C(C)NC(=O)C2CC(O)CN2C(=O)C(NC(=O)CCCCCCCCCCN2CCCC(Nc3ncc(Cl)c(Nc4ccccc4S(=O)(=O)C(C)C)n3)C2)C(C)(C)C)cc1 (stereo not shown),22Rv1,"RNA-seq, item: RNASEL mRNA",,concentration not given,relative to: DMSO,log2 fold change,-1.18
CCN(CC)CC(=O)Nc1cccc(-n2cc(-c3ccc4ccc(-c5cn(-c6cccc(NC(=O)CN(CC)CC)c6)nn5)cc4c3)nn2)c1,RCC4,"PCR angiogenesis array, item: SPHK1",,"5 x IC50, 2 h, normoxia",relative to: untreated,fold regulation,1.07
